Results of several laboratories.
Lines come from different studies, so protocols differ. ± gives the spread as reported.
Slc6a3: Sodium-dependent dopamine transporter (Slc6a3, Rattus norvegicus, UniProt P23977)
Sequence of UniProt P23977 (whole entry, looked up): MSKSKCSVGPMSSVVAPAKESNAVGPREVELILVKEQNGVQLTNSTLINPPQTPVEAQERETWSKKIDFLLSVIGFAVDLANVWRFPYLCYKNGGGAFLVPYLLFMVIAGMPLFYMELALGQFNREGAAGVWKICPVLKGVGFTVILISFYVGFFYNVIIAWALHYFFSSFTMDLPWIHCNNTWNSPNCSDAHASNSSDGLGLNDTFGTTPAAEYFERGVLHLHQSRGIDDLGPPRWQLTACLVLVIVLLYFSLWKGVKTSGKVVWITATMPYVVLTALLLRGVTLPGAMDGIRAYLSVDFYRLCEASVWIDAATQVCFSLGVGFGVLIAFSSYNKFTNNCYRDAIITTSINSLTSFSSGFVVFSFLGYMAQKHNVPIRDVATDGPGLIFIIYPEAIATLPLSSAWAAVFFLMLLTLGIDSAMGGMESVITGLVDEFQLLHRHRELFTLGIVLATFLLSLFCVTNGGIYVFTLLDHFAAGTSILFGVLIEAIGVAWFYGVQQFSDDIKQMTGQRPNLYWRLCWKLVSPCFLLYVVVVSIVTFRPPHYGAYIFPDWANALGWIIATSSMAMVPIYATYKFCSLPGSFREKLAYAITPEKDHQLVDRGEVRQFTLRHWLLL
Sequence of UniProt P62813 (whole entry, looked up): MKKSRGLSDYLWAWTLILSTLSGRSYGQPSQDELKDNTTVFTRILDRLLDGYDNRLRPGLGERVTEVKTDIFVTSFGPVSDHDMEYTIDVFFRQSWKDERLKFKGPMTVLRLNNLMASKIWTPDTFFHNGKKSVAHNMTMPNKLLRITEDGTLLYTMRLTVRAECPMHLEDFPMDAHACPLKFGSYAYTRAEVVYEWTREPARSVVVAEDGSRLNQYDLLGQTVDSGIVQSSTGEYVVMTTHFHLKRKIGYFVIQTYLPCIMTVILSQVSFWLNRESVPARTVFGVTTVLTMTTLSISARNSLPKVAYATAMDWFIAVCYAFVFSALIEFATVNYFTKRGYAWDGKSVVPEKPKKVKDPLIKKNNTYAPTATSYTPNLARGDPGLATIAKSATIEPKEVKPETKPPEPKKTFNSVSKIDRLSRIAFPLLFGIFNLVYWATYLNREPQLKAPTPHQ
Sequence of UniProt P01116 (whole entry, unmodified, looked up): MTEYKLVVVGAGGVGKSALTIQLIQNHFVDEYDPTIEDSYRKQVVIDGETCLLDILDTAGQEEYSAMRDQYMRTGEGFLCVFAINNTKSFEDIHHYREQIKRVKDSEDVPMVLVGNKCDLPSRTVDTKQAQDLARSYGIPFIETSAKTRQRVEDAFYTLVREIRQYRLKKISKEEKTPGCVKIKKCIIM
Sequence of UniProt P18508 (whole entry, looked up): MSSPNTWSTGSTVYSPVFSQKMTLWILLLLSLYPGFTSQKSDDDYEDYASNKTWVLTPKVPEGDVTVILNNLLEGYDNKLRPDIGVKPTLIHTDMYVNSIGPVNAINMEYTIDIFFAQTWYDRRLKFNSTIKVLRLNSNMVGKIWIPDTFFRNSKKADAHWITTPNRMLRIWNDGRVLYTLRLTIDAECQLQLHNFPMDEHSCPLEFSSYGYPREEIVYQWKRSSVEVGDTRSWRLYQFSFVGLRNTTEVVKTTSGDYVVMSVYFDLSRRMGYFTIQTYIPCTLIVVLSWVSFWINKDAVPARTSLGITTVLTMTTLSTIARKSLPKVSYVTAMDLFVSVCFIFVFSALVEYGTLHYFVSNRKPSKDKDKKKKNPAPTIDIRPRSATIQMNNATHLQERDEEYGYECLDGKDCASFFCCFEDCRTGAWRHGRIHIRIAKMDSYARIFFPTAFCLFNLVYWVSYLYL
Sequence of UniProt P00374 (whole entry, looked up): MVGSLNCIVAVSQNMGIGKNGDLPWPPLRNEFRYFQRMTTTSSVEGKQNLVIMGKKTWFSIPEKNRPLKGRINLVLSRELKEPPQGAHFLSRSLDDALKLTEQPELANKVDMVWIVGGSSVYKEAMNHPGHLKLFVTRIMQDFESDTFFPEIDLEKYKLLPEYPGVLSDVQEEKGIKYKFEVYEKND
Sequence of UniProt P31645 (whole entry, looked up): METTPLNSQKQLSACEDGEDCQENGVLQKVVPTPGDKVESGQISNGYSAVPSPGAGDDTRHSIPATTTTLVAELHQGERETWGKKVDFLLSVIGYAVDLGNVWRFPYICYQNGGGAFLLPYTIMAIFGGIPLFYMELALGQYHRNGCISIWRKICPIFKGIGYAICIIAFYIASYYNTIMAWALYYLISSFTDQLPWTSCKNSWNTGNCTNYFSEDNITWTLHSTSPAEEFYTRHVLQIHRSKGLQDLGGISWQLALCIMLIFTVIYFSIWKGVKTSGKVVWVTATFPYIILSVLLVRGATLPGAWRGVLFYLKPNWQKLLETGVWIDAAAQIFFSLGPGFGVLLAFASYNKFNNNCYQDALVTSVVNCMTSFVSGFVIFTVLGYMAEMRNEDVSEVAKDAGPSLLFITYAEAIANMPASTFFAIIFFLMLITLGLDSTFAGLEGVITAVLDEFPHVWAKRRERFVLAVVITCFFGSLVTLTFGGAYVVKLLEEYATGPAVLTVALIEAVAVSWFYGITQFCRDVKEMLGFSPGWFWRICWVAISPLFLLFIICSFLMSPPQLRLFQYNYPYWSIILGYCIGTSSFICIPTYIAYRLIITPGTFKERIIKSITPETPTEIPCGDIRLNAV
Sequence of UniProt Q05209 (whole entry, looked up): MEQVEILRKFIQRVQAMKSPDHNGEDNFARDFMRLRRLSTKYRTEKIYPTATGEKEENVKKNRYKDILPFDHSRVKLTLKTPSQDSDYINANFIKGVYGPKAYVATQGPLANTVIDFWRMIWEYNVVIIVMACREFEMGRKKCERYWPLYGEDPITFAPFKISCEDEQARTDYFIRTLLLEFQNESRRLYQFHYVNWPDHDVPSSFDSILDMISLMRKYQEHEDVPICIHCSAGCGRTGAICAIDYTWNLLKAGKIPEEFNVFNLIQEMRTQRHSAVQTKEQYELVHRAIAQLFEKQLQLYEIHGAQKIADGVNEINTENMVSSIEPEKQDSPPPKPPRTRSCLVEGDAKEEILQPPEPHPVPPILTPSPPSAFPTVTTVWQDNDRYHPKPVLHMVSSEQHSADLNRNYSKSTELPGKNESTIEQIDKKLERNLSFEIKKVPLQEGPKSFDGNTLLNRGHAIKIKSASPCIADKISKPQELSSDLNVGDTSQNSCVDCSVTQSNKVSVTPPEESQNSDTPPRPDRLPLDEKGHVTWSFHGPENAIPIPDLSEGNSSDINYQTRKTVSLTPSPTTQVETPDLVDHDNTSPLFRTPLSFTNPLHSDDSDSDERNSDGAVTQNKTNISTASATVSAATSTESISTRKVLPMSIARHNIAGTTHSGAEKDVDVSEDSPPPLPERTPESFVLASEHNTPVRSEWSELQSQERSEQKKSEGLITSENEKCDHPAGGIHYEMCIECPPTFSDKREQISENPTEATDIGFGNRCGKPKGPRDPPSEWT
Sequence of UniProt P05177 (whole entry, looked up): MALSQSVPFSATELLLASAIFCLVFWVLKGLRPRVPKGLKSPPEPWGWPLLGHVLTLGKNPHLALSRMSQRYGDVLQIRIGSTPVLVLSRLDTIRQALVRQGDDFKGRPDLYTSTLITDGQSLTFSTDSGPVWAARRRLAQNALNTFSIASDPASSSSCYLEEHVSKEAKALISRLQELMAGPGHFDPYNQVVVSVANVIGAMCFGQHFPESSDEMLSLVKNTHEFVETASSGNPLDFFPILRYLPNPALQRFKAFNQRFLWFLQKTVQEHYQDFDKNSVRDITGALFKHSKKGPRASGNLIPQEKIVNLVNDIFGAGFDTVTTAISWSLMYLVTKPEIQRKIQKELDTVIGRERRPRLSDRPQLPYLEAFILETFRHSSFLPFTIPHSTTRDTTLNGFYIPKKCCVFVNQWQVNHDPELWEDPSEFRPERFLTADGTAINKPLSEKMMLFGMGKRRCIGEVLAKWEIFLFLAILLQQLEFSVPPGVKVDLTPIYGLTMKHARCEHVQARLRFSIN
Sequence of UniProt P51449 (whole entry, looked up): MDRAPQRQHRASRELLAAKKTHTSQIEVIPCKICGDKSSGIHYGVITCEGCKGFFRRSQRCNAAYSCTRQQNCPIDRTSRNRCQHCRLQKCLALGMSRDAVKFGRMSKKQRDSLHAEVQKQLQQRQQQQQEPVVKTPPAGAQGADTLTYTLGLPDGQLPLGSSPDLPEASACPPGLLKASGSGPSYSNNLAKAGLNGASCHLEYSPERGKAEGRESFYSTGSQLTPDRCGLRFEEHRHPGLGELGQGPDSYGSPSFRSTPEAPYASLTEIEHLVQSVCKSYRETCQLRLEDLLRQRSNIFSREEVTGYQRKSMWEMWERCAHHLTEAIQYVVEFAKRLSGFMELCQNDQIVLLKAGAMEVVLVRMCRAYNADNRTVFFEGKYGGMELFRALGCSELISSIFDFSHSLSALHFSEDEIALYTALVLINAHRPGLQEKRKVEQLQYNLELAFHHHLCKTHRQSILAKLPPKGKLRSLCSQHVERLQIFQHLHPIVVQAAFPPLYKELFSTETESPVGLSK

| Structure (SMILES) | target | test | test system | conditions | IC50 |
| --- | --- | --- | --- | --- | --- |
| CCOC(=O)/C=C/[C@H](C[C@@H]1CCNC1=O)NC(=O)[C@@H]1[C@@H]2[C@H](CN1C(=O)[C@@H](NC(=O)C(F)(F)F)C(C)(C)C)C2(C)C | Replicase polyprotein 1a, main protease (Human coronavirus 229E, UniProt P0C6U2) | inhibitor, FRET | – | – | 0.29 ± 0.018 µM |
| C[N+](C)(C)CCc1c[nH]c2cccc(O)c12 | Slc6a3 | transporter uptake, inhibitor, radiometric | – | – | > 10 µM |
| NC1=NC2(CCCCC2)N(c2ccc(OCc3cn(CCCCOc4ccc5ccc(=O)oc5c4)nn3)cc2)C(N)=N1 | Dihydrofolate reductase (DHFR, Homo sapiens, UniProt P00374) | enzyme activity, inhibitor | – | – | 10.5 µM |
| COc1ccccc1N1C(=O)/C(=C/c2cccn2-c2ccc(O)cc2)C(=O)NC1=S | Nuclear receptor ROR-gamma (RORC, Homo sapiens, UniProt P51449) | reporter gene, inverse agonist, luciferase | – | – | 0.587 µM |
| O=C1CC(=O)N(c2ccccc2)c2cc(Cl)ccc2N1 | Gabrg2/Gabra1, with β2 subunit (Rattus norvegicus, UniProt P18508+P62813) | binding, radioligand displacement | HEK293 cell membranes | added: 1 nM [3H]flunitrazepam | 0.78 ± 0.15 µM |
| Cc1ccccc1N1C(=O)/C(=C/c2ccc(OCc3cccc(C(=O)O)c3)cc2)C(=O)NC1=S | Tyrosine-protein phosphatase non-receptor type 12 (PTPN12, Homo sapiens, UniProt Q05209) | enzyme activity, inhibitor | – | – | > 100 µM |
| Fc1ccccc1CCNCc1cccc(Cl)c1Cl | Sodium-dependent serotonin transporter (SLC6A4, Homo sapiens, UniProt P31645) | transporter uptake, inhibitor, radiometric | – | – | > 20 µM |
| CCC[C@H](C(=O)c1ccccc1)N1CCCC1 | Slc6a3 | dopamine clearance, inhibitor, fast-scan cyclic voltammetry | rat striatal slices | – | 0.776 µM |
| CCCCCc1cc(O)c2c(c1)OC(C)(C)C1CCC(C)=CC21 (single isomer, unassigned; (-)) | Cytochrome P450 1A2 (CYP1A2, Homo sapiens, UniProt P05177) | inhibitor | human, pooled liver microsomes | pH 7.4, added: phenacetin | 0.27 ± 0.11 µM |
| Cc1[nH]c2cc(Cl)cc(Cl)c2c1CCN | GTPase KRas (KRAS, Homo sapiens, UniProt P01116, G12D) | enzyme activity, inhibitor | – | – | 1750 µM |

Some of these lines once more:
| Structure (SMILES) | target | test | test system | conditions | IC50 |
| --- | --- | --- | --- | --- | --- |
| CCOC(=O)/C=C/[C@H](C[C@@H]1CCNC1=O)NC(=O)[C@@H]1[C@@H]2[C@H](CN1C(=O)[C@@H](NC(=O)C(F)(F)F)C(C)(C)C)C2(C)C | Replicase polyprotein 1a, main protease (Human coronavirus 229E, UniProt P0C6U2) | inhibitor, FRET | – | – | 0.29 ± 0.018 µM |
